# Experimental data collected from several papers.
# Compare with care: the assays were run in different laboratories. “And” joins repeats or separate records; there may be more than shown. Numbers after ± are the reported error.
Molecule,test,system,setting,scale,endpoint,result
CCc1ccc(Cc2cc([C@@H]3O[C@H](CO)[C@@H](O)[C@H](O)[C@H]3O)cc3c2CCC3)cc1,,"mouse C57BL/6, male, plasma","oral, 3 mg/kg",,oral bioavailability,> 89%
liraglutide,equilibrium dialysis,human plasma 50% diluted,"10 nM, 4 to 5 h, pH 7.4, 37 °C, inner-outer ratio 50:1",,plasma protein binding,98.8%
O=C(c1cccnc1-c1ccncc1)N1CCC(O)(Cc2ccccc2)CC1,,"healthy human, urine","oral, 300 mg once daily, day 14, arithmetic mean",,renal clearance,3.67 mL/min
CC1(C)Oc2cc3oc(=O)ccc3cc2C[C@@H]1O,,"male CD-1 mouse, plasma","oral gavage, 80 mg/kg daily, 4 weeks",,plasma Gluc level,336 ± 37.2 mg/dL
O=C(CCCN1CCCN(c2ccc(Cl)cc2)CC1)c1ccc(F)cc1,,"male Sprague-Dawley rats, plasma","intravenous, 1.7 mg/kg, together with: HAL 0.7 mg/kg plus BCT 0.1 mg/kg",,clearance,49.5 ± 11.2 mL/min/kg
CCCOc1ccc([C@H]2CNC(=O)N2c2ccc3[nH]cnc3c2)cc1,,"elderly human volunteers fasted, plasma","oral capsule, 300 mg twice daily, day 7, geometric mean",,effective half-life,2.85 h
O=C(CCc1ccccc1)c1cc(F)ccc1OCC(O)CN1CCN(C(c2ccccc2)c2ccccc2)CC1 (stereo not shown),metabolic stability,"human, liver microsomes","20 µM, pH 7.4",,scaled CLint,13 mL/min/kg
CC(C)=CCC[C@](C)(O[C@@H]1O[C@H](CO)[C@@H](O)[C@H](O)[C@H]1O)[C@H]1CC[C@]2(C)[C@@H]1[C@H](O)C[C@@H]1[C@@]3(C)CC[C@H](O)C(C)(C)[C@@H]3[C@@H](O[C@@H]3O[C@H](CO)[C@@H](O)[C@H](O)[C@H]3O[C@@H]3O[C@@H](C)[C@H](O)[C@@H](O)[C@H]3O)C[C@]12C,,"Sprague Dawley rat, male, plasma","oral, 45 mg/kg, in red ginseng extract",,CL/F,310 ± 91.7 mL/min/kg
C[C@]12CC[C@@H]3c4ccc(O)cc4CC[C@H]3[C@@H]1C[C@@H](O)[C@@H]2O,GC-MS,"breast cancer women on NSAI, serum","vaginal, 0.03 mg, 2 h, day 0",,mean serum concentration,0.0727 ng/mL
O=C(O)Cc1ccccc1Nc1c(Cl)cc(F)cc1Cl,glucuronidation,human liver microsomes,"30 min, together with: UDPGA",,remaining compound,43 ± 0.8%
CCN1CC(=O)NC(CC(C)C)C(=O)N(C)C(C)C(=O)NC(CC(C)C)C(=O)N2CCCC2C(=O)N(CC2CCCCC2)CC(=O)NC(CC(C)C)C(=O)N(C)C(C)C(=O)NC(Cc2ccccc2)C(=O)N2CCCC2C1=O (stereo not shown),,mouse,"oral, dose not given, together with: GF120918 pretreatment",,oral bioavailability,7%
acyl ghrelin (human),,"mouse, Ghsr knockout, hippocampus","intravenous, 10 min",,brain/serum ratio,4.17 µL/g
Cl.NCCc1c[nH]c(=S)n1[C@H]1COc2c(F)cc(F)cc2C1,,"healthy young male human, plasma","oral, 25 to 600 mg",reference: NAT2 slow over rapid acetylators,exposure ratio,1.5 to 6.7
CSc1cc(C)nc(SC)c1NC(=O)CN1CCN(CCSc2nc3ccccc3[nH]2)CC1.Cl,,"CD-1 mouse, female, cerebrum","intranasal, 32.4 µg/10 µL, 7 days repeated",,half-life,0.26 ± 0.0717 h
CN(C)Cc1cc(OCCC[18F])ccc1Sc1ccccc1N,,"male Sprague-Dawley rats, saline control, cerebellum","intravenous, dose not given, 60 min",,tissue uptake,0.14 ± 0.04 %ID/g
CC1(C)C=Cc2c(ccc3c2OC[C@@H](c2ccc(O)cc2O)C3)O1,"glucuronidation, item: M1 plus M2 formation",cynomolgus monkey liver microsomes,pH 7.4,,total intrinsic clearance,20 µL/min/mg
O=C1N=C(N2CCOCC2)CN1c1ccc(Cl)cc1,,"beagle dog, both sexes, plasma","oral, 30 mg/kg, tablets, fasted, day 5",,terminal half-life,1.39 h
CNC(=O)c1ccc(-c2cnc3ncc(Cc4ccc5ncccc5c4)n3n2)cc1F,,"human, moderate hepatic impairment (Child-Pugh B), plasma","oral, 200 mg single dose",,half-life (geometric mean),5.77 h
CC(=O)O[C@H]1C(=O)[C@@]2(C)[C@H]([C@H](OC(=O)c3ccccc3)[C@]3(O)C[C@H](OC(=O)[C@H](O)[C@@H](NC(=O)c4ccccc4)c4ccccc4)C(C)=C1C3(C)C)[C@]1(OC(C)=O)CO[C@@H]1C[C@@H]2O,ELISA,"C57BL/6 mouse, B16/F10 tumour, tumour homogenate","intravenous, 2.5 mg/kg",,tumour concentration,25 ng/mL
Cn1c(-c2ccc(C(N)=O)cc2F)nnc1C(C)(C)Oc1c(F)cc(Cl)cc1F,,"young non-Japanese adults, plasma","oral, 20 mg single dose, day 1, high-dose multiple-dose study",,half-life median,15.4 h
Cc1nc2cccc(OCC(C)(C)C(=O)NC(C)C)c2c(N)c1C(=O)O,,"female Sprague-Dawley rat, plasma","dietary, 60 mg/kg/day, day 90",,Tmax,3 h
COc1cccc(N2CCN(C3=Nc4c(F)cccc4[C@H](CC(=O)O)N3c3cc(C(F)(F)F)ccc3OC)CC2)c1,UHPLC-MS/MS,"healthy women, plasma","intravenous infusion, 120 mg single dose, 30 min infusion, HPβCD formulation",,volume of distribution,158 ± 44.6 L
Cc1cc(Nc2ncc(Cl)c(Nc3ccccc3S(=O)(=O)C(C)C)n2)c(OC(C)C)cc1C1CCNCC1,item: total drug,"human, plasma","oral, 750 mg/day",,"Css,min",2100 nM and 920 nM and 766 nM
COC(=O)C[C@](O)(CCCC(C)(C)O)C(=O)O[C@@H]1C(OC)=C[C@]23CCCN2CCc2cc4c(cc2[C@H]13)OCO4,,"CD1 mouse, plasma","oral, 1 mg/kg, 24 h",,concentration,not detected
O=c1cc(-c2ccccc2)oc2cc(O)cc(O)c12,,phosphate buffer,"pH 6.8, added from DMSO stock",,precipitation concentration,> 400 µM
O=C(O)[C@H](c1ccccc1Cl)N1CCc2sccc2C1,HPLC-MS/MS,feline EDTA plasma,"6 h, -80 °C, storage stability",,deviation from nominal,-7%
O=C(Nc1ccc(OC(F)(F)F)cc1)N[C@H]1CC[C@H](Oc2ccc(C(=O)O)cc2)CC1,,"mares, plasma","intravenous, 0.1 mg/kg",,Vss,1.25 ± 0.34 L/kg
CC(=O)N1CCC[C@H]1C(=O)N[C@@H](CCCNC(=N)N)C(=O)N[C@H](C(=O)N[C@@H](CC(=O)O)C(=O)N[C@H](C(=O)N[C@@H](CCCNC(=N)N)C(=O)N[C@H](C(=O)N[C@@H](CC(=O)O)C(=O)N[C@H](C(N)=O)C(C)C)C(C)C)C(C)C)C(C)C,rotational rheometry,2% w/v aqueous solution,shear rate range 1-1000 s^-1,,viscosity,1550 ± 49.5 Pa·s
CC(C)[C@H](C(=O)Nc1ccc(C(=O)NO)cc1)c1ccccc1,,"human, tumour centre over plasma",40 mg,reference: pre-anaesthesia plasma,tissue/plasma ratio,17.8
CCCC[C@H](NC(C)=O)C(=O)N[C@H]1CCC(=O)NC[C@@H](C(=O)N[C@@H](Cc2c[nH]c3ccccc23)C(N)=O)NC(=O)[C@H](CCCNC(=N)N)NC(=O)[C@@H](Cc2ccccc2)NC(=O)[C@H](Cc2c[nH]cn2)NC1=O,,"CD Sprague Dawley rat, female, plasma","subcutaneous, 5.0 mg/kg daily, day 1",,CL/F,19.8 mL/min/kg
CC1(C)C(=CC=C2CCCC(C=CC3=[N+](CCCCS(=O)(=O)[O-])c4ccccc4C3(C)C)=C2Cl)N(CCCCCC(=O)O)c2ccccc21,NIR fluorescence imaging,"nude mouse, MCF7 xenograft","17 nmol/mouse, 8 d",reference: Cy7,tumour fluorescence per volume,~2 fold
Alexa Fluor 647,,PBS,"3 µM, 1 h, photostability, together with: 150 W xenon lamp",,remaining absorbance,77%
CCn1nc(C2CC2)cc1Nc1nc(C(=O)NCCCCCc2cccc3c2CN(C2CCC(=O)NC2=O)C3=O)nc2[nH]c3cc(-c4c(C)noc4C)c(OC)cc3c12 (stereo not shown),,"female SCID C.B-17 mouse, RS4;11 xenograft, tumour","intravenous, 5 mg/kg single, 6 h",,concentration in tumour,39.4 ng/g
CC(C)C[C@H](NC(=O)[C@H](CCCNC(=N)N)NC(=S)Nc1ccc(C[C@H]2CN(CC(=O)O)CCN(CC(=O)O)CCN2CC(=O)O)cc1)C(=O)N[C@@H](CC(N)=O)C(=O)N[C@H](C(=O)NCC(=O)NCC(=O)N[C@H](C(=O)N[C@@H](Cc1ccc(O)cc1)C(=O)N[C@@H](Cc1ccccc1)C(=O)N[C@@H](CC(C)C)C(=O)N[C@H](C(=O)N[C@H](C(=O)N[C@@H](CCCNC(=N)N)C(=O)N[C@@H](CCC(N)=O)C(=O)O)[C@@H](C)O)[C@@H](C)O)[C@@H](C)O)C(C)C [fluorine-18 labelled],radio-HPLC,"mouse (HepG2 tumour-bearing), kidney","intravenous, 5.55 MBq, 1 h",,intact parent radiotracer,54.9 ± 2.12%
CCN(CC)Cc1cc(Nc2ccnc3cc(Cl)ccc23)ccc1O,,"rat, Wistar, male, plasma","oral, 60 mg/kg",,CL/F,261 ± 27.5 mL/min/kg
COc1cc(/C=C/C(=O)CC(=O)/C=C/c2ccc(O)c(OC)c2)ccc1O,I-125 label,"C57BL/6J mouse, hippocampus","intranasal vs intraperitoneal, 10 µg/mouse IN, 100 µg/mouse IP, 24 h",reference: intranasal over intraperitoneal,brain uptake ratio,3.41
[2H]C([2H])([2H])Oc1cc2c(cc1OC([2H])([2H])[2H])C1CC(=O)C(CC(C)C)CN1CC2 (stereo not shown),item: total (α+β)-HTBZ,"human, fasted","oral, 15 mg single dose",reference: tetrabenazine 25 mg fasted,geometric mean ratio AUCinf,115%
